Results pooled from the literature.
Each numbered part is a random draw from the data of one study; scales do not carry over between parts.

Set 1
Target: Max-binding protein MNT, bHLH-zipper, MAX partner unstated (MNT, Homo sapiens, UniProt Q99583, residues 220-300)
Method: protein-binding microarray
Form: double-stranded DNA, one strand shown
Sample: in vitro
Tested at: not given
Notes: k-mer, scored over probes, only values ≥0.25
Direction: higher = stronger binding
Measurement: E-score
Target sequence (chain): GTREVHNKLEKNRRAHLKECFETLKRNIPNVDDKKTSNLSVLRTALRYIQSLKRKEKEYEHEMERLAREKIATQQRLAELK
CCTCACGC: 0.308
ACCACCTG: 0.333
CGTGTTAC: 0.35
ATGGCACG: 0.35
CGTGTAAC: 0.337
ACTGCACG: 0.362
CGTGCCAA: 0.329
ACACGGGG: 0.381

Set 2
Target: Interferon regulatory factor 5, full length, phosphomimetic (IRF5, Homo sapiens, UniProt Q13568-2, residues 1-514, K96S/S451D/S453D/S456D/S462D)
Method: protein-binding microarray
Form: double-stranded DNA, one strand shown
Sample: in vitro
Tested at: 250 nM
Notes: 60-bp whole probe
Together with: salmon DNA 0.4 mg/ml
Baseline: random background probes
Direction: higher = stronger binding
Measurement: log fluorescence
Constant ends, left off below: GCCTAGCAC … GTGCTAGGTCTTGATTCGCTTGACGCTGCTG
TTAGGTATCCTACTGCTTCA: -0.144 z-score
TCATTTTTTTTTTTACTACT: 1.06 z-score
TTAGGCCTGGGTTTCGGTTA: 7.94 z-score
TTAGGTTTCGTTCTCGGTTA: 7.67 z-score
TGCTCTTTCTACATAGATGT: 2.03 z-score
TGAGCTTACAATATAAAAGG: 0.211 z-score
TCATTTTACTTTCTATGACT: 4.88 z-score
GACGATCTTAGACTGGAGAC: -0.338 z-score

Set 3
Target: Histone acetyltransferase KAT6A, winged helix 2, GST fusion (KAT6A, Homo sapiens, UniProt Q92794, residues 85-181)
Method: protein binding microarray
Form: double-stranded DNA, one strand shown
Sample: in vitro
Tested at: not given
Notes: 8-mer, flanks averaged, mean of 2 arrays, mostly near background
Baseline: not given
Direction: higher = stronger binding
Measurement: E-score
Target sequence (chain): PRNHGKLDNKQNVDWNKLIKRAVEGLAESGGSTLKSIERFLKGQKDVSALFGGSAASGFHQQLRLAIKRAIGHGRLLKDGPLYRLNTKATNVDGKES
ACGGATAC: -0.0676
GAGTGCCA: -0.0593
CCATCACA: 0.0469
AAAACAGT: -0.0564
CGGTAATC: -0.207
GTCAGCAC: -0.054
CCAGGACA: -0.145

Other studies, line by line
PhoQ, residues 284 288 289 292 302 303 WSHMKI — fold induction (PhoP, residues 12 14 15 18 19 NQCAL (Escherichia coli, UniProt P23836); Sort-seq, refers to: YFP reporter; E. coli; PhoQ-PhoP variant library, together with: 10 µM Mg2+; baseline: high Mg2+ state, higher = stronger signaling): 0.993

A few entries again (set 1):
ACCACCTG: 0.333
CGTGCCAA: 0.329
